# Experimental data pooled from the literature.
# Compare with care: the assays were run in different laboratories.
# WRKY11 full length assumed: WRKY11 full length assumed (Arabidopsis thaliana, UniProt Q9SV15)
# UniProt Q9SV15, sequence (whole entry, looked up): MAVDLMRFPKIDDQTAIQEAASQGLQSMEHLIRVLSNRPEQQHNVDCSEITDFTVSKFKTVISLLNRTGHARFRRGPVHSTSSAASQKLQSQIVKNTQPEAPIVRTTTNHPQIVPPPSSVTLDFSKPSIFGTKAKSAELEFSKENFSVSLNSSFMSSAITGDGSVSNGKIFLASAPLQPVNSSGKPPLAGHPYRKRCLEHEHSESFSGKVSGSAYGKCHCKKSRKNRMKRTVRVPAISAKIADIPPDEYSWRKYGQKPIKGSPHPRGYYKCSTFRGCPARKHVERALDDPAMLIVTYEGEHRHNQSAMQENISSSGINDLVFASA
# brat: brat 756-1037 (Drosophila melanogaster, UniProt Q8MQJ9)
# UniProt Q8MQJ9, sequence (whole entry, looked up): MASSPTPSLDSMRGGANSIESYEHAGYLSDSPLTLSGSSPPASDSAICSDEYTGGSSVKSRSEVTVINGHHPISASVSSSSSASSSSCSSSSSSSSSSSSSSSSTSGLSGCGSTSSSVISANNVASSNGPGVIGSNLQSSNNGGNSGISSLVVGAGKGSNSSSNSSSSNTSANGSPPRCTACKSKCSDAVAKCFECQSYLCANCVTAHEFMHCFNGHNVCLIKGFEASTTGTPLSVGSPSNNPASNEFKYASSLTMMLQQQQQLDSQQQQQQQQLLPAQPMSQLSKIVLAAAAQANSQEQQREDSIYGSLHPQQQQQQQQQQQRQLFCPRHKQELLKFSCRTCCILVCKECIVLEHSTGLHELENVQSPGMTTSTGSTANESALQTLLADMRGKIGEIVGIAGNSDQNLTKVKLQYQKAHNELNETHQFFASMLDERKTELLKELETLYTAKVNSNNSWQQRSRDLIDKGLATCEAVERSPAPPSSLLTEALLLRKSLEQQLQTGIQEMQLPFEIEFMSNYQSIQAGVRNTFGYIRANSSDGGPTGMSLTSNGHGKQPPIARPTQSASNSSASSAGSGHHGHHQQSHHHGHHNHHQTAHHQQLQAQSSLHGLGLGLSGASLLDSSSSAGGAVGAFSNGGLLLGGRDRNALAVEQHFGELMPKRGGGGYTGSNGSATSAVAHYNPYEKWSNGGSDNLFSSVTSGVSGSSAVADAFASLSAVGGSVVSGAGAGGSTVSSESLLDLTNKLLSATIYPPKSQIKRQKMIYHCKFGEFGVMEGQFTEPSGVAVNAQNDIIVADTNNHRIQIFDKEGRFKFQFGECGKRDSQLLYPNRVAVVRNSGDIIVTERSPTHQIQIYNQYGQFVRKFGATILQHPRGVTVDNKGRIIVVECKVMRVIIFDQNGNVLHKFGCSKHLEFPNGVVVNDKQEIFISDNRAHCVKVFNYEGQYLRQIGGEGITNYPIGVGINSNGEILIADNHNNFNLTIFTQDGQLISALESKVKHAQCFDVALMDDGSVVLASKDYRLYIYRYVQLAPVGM
# Transcription factor bHLH93: Transcription factor bHLH93 (Gossypium hirsutum, UniProt A0ABM3A805)
# Smad5: Smad5 1-143 (Mus musculus, UniProt P97454)
# UniProt P97454, sequence (whole entry, looked up): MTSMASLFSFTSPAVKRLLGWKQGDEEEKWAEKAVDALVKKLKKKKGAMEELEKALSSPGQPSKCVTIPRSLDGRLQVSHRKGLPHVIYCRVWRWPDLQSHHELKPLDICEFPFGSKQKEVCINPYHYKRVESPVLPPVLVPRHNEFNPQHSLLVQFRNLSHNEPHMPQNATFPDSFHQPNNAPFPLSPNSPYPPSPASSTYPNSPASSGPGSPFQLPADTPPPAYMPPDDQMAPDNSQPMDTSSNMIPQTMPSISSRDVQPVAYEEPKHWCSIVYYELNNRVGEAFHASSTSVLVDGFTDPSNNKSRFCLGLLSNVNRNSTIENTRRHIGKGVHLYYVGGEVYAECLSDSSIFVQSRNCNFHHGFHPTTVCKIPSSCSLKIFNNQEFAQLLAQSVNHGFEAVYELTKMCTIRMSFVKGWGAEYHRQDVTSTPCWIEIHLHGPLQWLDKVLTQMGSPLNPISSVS
# T1: Aebp2 223-496 (Mus musculus); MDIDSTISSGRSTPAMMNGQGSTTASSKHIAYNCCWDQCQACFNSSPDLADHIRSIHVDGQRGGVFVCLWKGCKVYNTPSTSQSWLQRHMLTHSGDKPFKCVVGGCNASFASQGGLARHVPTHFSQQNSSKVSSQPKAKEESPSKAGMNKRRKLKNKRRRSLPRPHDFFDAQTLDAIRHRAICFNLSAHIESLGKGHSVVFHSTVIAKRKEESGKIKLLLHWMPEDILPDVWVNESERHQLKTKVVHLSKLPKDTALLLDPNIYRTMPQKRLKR
# T2: ZFP57 residues 227-287 C232F (Homo sapiens); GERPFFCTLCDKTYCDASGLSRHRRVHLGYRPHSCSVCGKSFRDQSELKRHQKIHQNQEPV
# T3: NFATC3 393-708; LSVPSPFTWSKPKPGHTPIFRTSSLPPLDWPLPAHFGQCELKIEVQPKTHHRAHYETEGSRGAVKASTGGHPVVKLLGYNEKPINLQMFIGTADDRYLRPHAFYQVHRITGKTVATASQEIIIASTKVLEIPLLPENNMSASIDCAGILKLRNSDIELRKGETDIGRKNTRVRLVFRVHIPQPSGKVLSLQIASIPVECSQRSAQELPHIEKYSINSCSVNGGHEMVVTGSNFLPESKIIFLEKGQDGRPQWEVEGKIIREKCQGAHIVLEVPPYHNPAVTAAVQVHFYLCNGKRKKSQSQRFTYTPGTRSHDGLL
# UniProt Q96PU8, sequence (whole entry, looked up): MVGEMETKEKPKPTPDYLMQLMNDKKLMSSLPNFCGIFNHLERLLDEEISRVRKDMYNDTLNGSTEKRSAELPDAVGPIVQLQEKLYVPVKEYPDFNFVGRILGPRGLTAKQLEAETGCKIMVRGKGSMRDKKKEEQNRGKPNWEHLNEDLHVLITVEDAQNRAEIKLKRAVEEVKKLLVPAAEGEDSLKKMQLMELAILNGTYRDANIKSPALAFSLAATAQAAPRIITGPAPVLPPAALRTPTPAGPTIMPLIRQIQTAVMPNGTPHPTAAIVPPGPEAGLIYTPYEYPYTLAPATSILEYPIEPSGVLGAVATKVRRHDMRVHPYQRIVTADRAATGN
# UniProt P09086, sequence (whole entry, looked up): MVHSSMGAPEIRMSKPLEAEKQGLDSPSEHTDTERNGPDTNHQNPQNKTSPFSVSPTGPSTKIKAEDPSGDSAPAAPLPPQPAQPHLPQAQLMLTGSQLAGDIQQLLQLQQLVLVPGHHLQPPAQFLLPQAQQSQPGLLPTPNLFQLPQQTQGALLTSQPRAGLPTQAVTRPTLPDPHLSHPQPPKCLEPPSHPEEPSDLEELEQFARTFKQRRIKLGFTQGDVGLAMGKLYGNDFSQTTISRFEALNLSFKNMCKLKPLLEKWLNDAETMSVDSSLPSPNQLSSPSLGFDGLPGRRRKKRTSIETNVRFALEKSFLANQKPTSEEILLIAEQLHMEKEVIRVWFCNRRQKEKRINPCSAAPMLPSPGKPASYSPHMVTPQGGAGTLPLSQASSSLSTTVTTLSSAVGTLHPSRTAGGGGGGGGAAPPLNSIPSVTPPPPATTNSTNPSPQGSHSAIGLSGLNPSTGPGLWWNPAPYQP
# UniProt Q7Z739, sequence (whole entry, looked up): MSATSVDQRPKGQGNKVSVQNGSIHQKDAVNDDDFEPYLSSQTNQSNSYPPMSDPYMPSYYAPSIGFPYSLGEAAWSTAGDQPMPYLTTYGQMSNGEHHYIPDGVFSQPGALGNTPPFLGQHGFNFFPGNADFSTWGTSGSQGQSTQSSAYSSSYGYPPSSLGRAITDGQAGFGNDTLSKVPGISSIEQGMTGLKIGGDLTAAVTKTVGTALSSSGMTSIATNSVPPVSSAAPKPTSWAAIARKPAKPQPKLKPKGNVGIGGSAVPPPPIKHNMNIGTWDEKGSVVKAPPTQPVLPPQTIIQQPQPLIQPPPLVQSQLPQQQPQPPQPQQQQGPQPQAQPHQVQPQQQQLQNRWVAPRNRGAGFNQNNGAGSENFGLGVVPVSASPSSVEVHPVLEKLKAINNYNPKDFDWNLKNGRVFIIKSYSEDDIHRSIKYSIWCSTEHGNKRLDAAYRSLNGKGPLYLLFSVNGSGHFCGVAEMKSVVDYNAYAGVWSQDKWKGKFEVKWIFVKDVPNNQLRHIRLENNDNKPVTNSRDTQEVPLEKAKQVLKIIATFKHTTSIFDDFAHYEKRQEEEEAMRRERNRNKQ
Oligonucleotide,target,test,system,conditions,scale,measurement,value
TTATTCAGCCATCAAAAGTTGACAAATAAT (dsDNA),WRKY11 full length assumed,EMSA,"double-stranded DNA, one strand shown",,,binding,no binding
GUUCUUUUUUGCUUUUUUUUGGGCUUUUUCUCAUU (ssRNA),"Uncharacterized protein (Zea mays, UniProt K7TID7)",EMSA,RNA,,,binding,binds
"GACAUGGUCCGGUAGUUCAGUUGGUUAGAAUGCCUGCCUGUCACGCAGGAGGUCGCGGGUUCGAGUCCCGUCCGGACCG (tRNA (Bacillus subtilis); 5'-GMPS, tRNA fold)","PRORP1 77-572 T180S (Arabidopsis thaliana, UniProt Q66GI4)",fluorescence anisotropy,folded RNA,NaCl 1 M,reference: wild-type target,binding free energy loss,1.5 kcal/mol
GATCTTTAAAAAAATTCCTCTCTGTCTGCAGGCCACTCCAGATC (dsDNA),"T1, Aebp2 223-496 (Mus musculus)",competition binding,"double-stranded DNA, one strand shown",together with: labelled T1 probe,,binding,no binding
TGGGCTTTGCCGCCCGCGGC (dsDNA (Homo sapiens); 5-methylcytosine),"T2, ZFP57 residues 227-287 C232F (Homo sapiens)",EMSA,"double-stranded DNA, one strand shown",,,binding,binds
UUAUGUACAAUUUUCGACAACAAAAUA (ssRNA),brat,EMSA,RNA,,,binding,no binding
GTGGATCTTTCACTTCCTTAGTTAGAGTCACGCCAATGTATTTTATA (dsDNA),"T1, Aebp2 223-496 (Mus musculus)",competition binding,"double-stranded DNA, one strand shown",together with: labelled T1 probe,,binding,binds
GAGCTGAGCGGCACCCACAC (dsDNA (Homo sapiens); 5-methylcytosine),"T2, ZFP57 residues 227-287 C232F (Homo sapiens)",EMSA,"double-stranded DNA, one strand shown",,,binding,binds
TTATTCAGCCATCAAAGGTTGACCAGTAAT (dsDNA),WRKY11 full length assumed,EMSA,"double-stranded DNA, one strand shown",,,binding,binds
AGAAACAACTTGACCCTTTACATTGCTCAAGAGCTCATCTCTT (dsDNA),"Uncharacterized protein 424-651 (Zea mays, UniProt A0A1D6GZW1)",EMSA,"double-stranded DNA, one strand shown",,,binding,binds
CATTCCCTGAGGACTTCAGTATCCCGTCCTCACAAGGCCAACCTCAGCATGA (dsDNA),"T1, Aebp2 223-496 (Mus musculus)",competition binding,"double-stranded DNA, one strand shown",together with: labelled T1 probe,,binding,binds
ATCACATTAACATCTGGCCTATATAA (dsDNA),Transcription factor bHLH93,EMSA,"double-stranded DNA, one strand shown",,,binding,binds
TTATTCAGCCATCAAAAGTTCACCAATAAT (dsDNA),WRKY11 full length assumed,EMSA,"double-stranded DNA, one strand shown",,,binding,no binding
"DNA 1 GTCGACCAGCTGAGTCGACCAGCTG / DNA 2 CAGCTGGTCGAC / DNA 3 CAGCTGGTCGAC (dsDNA; nicked, N6-methyl-dA)","YTHDF3 400-585 (Homo sapiens, UniProt Q7Z739)",pull-down,double-stranded DNA,,,binding,binds
AGTCCCTCTCCAGAACTTTCCCACAACAACCA (dsDNA),"HSF-type DNA-binding domain-containing protein 1-200 (Malus domestica, UniProt A0A498J7G8)",EMSA,"double-stranded DNA, one strand shown",,,binding,binds
ATCAGTCTAGACATACA (dsDNA),Smad5,EMSA,"double-stranded DNA, one strand shown",,,binding,binds
CTTCCTCCAGATGAGCTCATGGGTTTCTCCACCAAGGAAGTTTTCCGCTGGTTG (dsDNA),"T3, NFATC3 393-708",EMSA,"double-stranded DNA, one strand shown",,,binding,binds
TGCTGATTGGCCATGTGCGCTCACCCGAGGGGCGGGG (dsDNA),HIF1A/ARNT (Homo sapiens),EMSA,"double-stranded DNA, one strand shown",not purified,,binding,binds
TTGAAAATATGTGTAATATT (dsDNA),"POU2F2 full length assumed (Homo sapiens, UniProt P09086)",competition,"double-stranded DNA, one strand shown",not purified,,binding,no binding
TTATTCAGCCATCAAAAGGTGACCAATAAT (dsDNA),WRKY11 full length assumed,EMSA,"double-stranded DNA, one strand shown",,,binding,no binding
GGGAGACCUAGCCUCAUAUAAUCGUUGUCCAGAAUGGGAUGGAUUCGUAGCAUAAGUUUUCCAAACAUUAUUUUGUUGUCGAAAAUGGGACGGAAGCCAAUUAAGCCGCUA (ssRNA),brat,EMSA,RNA,,,binding,binds
ATTATTGACTTAATTACTAGTTGACCAATA (dsDNA),WRKY11 full length assumed,EMSA,"double-stranded DNA, one strand shown",two complexes,,binding,binds
GAGATTAGAACACATGGATTGAATTT (dsDNA),Transcription factor bHLH93,EMSA,"double-stranded DNA, one strand shown",,,binding,binds
TTATTCAGCCATCAAAAGTTGACCTATAAT (dsDNA),WRKY11 full length assumed,EMSA,"double-stranded DNA, one strand shown",,,binding,binds
GGUAUACUAAAAU (ssRNA),"QKI 76-205 (Homo sapiens, UniProt Q96PU8)",NMR titration,RNA,,,binding,binds
TTATTCAGCCATCAAAAGTTGACCCATAAT (dsDNA),WRKY11 full length assumed,EMSA,"double-stranded DNA, one strand shown",,,binding,binds
GATCTTTAGTTAACTTCCTCTAAAAAAACAGGCCACTCCAGATC (dsDNA),"T1, Aebp2 223-496 (Mus musculus)",competition binding,"double-stranded DNA, one strand shown",together with: labelled T1 probe,,binding,binds
CGCCTGGCGCCAGAGA (dsDNA),Smad5,EMSA,"double-stranded DNA, one strand shown",,,binding,binds
"GGTAGAGACCTGTTGACTCGAAAGAGTCAACAGGTC (hairpin DNA; hairpin primer-template, 3' dideoxy end)","polA 324-928 D424A/K550C/L744C/C907S/E710A (Escherichia coli, UniProt P00582)",single-molecule FRET,folded DNA,binary complex,,binding,binds
TTATTCAGCCATCAAATGTTGACCATTAAT (dsDNA),WRKY11 full length assumed,EMSA,"double-stranded DNA, one strand shown",,,binding,binds
GATCTTTAGTTAACTTCCTCTCTGTCTGCTGTCTGCAGGCCACTCCAGATC (dsDNA),"T1, Aebp2 223-496 (Mus musculus)",competition binding,"double-stranded DNA, one strand shown",together with: labelled T1 probe,,binding,binds
ATGTGTTAGTTGGGGGGTGACTGTTAAAAGTGCATACCGCCAAAAGATAAAATTTGAAATCTG (dsDNA; 2-aminopurine at -1 non-template),POLRMT/TFAM/TFB2M 43-1230; 43-245; 21-396 (Homo sapiens),2-AP fluorescence,"double-stranded DNA, one strand shown",together with: ATP,,binding,binds

# A few entries again:
Oligonucleotide,target,test,system,conditions,scale,measurement,value
CTTCCTCCAGATGAGCTCATGGGTTTCTCCACCAAGGAAGTTTTCCGCTGGTTG (dsDNA),"T3, NFATC3 393-708",EMSA,"double-stranded DNA, one strand shown",,,binding,binds
TGCTGATTGGCCATGTGCGCTCACCCGAGGGGCGGGG (dsDNA),HIF1A/ARNT (Homo sapiens),EMSA,"double-stranded DNA, one strand shown",not purified,,binding,binds
TTGAAAATATGTGTAATATT (dsDNA),"POU2F2 full length assumed (Homo sapiens, UniProt P09086)",competition,"double-stranded DNA, one strand shown",not purified,,binding,no binding
TTATTCAGCCATCAAAAGGTGACCAATAAT (dsDNA),WRKY11 full length assumed,EMSA,"double-stranded DNA, one strand shown",,,binding,no binding
